Experimental data gathered from unrelated publications.
Each numbered part is a random draw from the data of one study; scales do not carry over between parts. “And” joins repeats or separate records; there may be more than shown.
Chain of UniProt P18825 (whole entry, looked up): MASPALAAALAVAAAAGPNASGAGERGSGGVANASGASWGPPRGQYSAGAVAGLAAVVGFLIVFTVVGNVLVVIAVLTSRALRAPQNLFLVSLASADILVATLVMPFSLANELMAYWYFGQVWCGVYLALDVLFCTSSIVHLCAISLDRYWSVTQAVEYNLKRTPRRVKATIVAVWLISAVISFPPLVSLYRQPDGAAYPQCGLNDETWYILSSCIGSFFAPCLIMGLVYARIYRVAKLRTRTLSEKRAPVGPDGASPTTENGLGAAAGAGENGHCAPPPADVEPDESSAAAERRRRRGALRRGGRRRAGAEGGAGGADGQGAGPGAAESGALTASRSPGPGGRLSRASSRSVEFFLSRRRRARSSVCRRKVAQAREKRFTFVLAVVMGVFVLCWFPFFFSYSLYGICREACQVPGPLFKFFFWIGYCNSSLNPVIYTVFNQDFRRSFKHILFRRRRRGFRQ
Chain of UniProt P35368 (whole entry, looked up): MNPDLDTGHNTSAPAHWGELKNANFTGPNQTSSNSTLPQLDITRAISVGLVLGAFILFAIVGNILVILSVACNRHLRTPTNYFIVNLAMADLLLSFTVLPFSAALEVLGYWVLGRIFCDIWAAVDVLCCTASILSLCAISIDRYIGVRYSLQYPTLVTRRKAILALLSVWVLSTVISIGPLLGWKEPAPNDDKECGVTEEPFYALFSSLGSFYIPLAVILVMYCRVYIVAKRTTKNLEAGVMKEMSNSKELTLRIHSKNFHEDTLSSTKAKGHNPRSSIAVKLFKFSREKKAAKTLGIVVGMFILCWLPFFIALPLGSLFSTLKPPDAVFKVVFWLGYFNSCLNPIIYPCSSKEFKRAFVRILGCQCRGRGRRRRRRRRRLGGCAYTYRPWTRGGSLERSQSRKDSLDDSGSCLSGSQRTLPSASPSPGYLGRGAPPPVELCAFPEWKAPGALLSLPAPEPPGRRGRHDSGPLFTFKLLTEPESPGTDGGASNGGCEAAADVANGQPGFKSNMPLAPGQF
Chain of UniProt P25100 (whole entry, looked up): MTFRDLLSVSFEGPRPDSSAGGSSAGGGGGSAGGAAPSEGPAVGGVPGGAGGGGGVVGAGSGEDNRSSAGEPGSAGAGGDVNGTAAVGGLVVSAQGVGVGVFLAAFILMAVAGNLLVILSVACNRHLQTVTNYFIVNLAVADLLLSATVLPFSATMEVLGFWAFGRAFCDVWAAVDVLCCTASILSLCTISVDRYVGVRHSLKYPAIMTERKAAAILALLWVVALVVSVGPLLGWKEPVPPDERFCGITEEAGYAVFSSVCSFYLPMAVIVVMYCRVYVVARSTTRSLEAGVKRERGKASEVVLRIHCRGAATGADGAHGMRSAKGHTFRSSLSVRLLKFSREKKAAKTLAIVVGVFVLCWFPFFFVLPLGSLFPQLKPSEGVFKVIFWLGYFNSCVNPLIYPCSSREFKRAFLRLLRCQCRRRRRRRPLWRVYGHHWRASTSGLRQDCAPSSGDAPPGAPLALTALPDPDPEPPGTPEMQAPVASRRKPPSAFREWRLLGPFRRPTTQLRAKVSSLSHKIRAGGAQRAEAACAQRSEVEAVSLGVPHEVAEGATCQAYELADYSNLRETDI
Chain of UniProt P47898 (whole entry, looked up): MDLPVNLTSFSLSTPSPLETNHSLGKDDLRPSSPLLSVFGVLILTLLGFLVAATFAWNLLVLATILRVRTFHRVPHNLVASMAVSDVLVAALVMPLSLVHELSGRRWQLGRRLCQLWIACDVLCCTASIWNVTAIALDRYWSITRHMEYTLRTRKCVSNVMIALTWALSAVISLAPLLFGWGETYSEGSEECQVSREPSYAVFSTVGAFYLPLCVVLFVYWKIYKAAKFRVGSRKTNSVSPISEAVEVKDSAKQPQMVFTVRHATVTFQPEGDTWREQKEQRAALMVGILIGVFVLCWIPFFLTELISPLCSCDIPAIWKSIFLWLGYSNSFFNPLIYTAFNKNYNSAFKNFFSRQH
Chain of UniProt P34969 (whole entry, looked up): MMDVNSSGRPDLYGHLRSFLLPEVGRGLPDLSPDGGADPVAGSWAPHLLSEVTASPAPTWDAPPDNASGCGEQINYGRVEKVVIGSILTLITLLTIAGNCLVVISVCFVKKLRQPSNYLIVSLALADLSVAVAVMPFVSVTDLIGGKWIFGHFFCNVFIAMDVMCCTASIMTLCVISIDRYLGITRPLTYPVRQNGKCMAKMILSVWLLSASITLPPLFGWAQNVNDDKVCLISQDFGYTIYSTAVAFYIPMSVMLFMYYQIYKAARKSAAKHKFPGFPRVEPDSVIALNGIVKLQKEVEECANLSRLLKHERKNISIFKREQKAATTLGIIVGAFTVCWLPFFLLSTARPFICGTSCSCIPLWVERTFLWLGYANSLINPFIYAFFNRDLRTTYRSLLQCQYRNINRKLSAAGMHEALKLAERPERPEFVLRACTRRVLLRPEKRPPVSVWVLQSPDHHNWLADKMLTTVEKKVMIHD

Series 1
SMILES: CN(C(=O)c1ccn2ncc(-c3ccc(C(N)=O)cc3)c2c1)c1ccc(C#N)cn1
Organism: Cryptosporidium parvum
Method: time-kill
Cells: HCT-8
Strain: nanoluciferase-expressing
Baseline: DMSO control
concentration	time	luminescence remaining
0.00102 µM	8 h	89.4% and 113%
0.00305 µM	4 h	93.8% and 104%
0.00305 µM	0 h	98% and 90.3% and 97.4% and 90.1% and 99.4% and 91.4% and 91.2% and 103%
2.222 µM	72 h	10.4% and 11%
0.2469 µM	48 h	10.4% and 11.3%

Series 2
Cell line: mouse MPNST tumor cells
Method: high-content immunofluorescence imaging
Refers to: nuclear SOX9
Concentration: 10 µM
Time: 12 h
Notes: mean of 2 replicates
Baseline: DMSO control
Direction: higher = more nuclear SOX9
Compound	nuclear SOX9 intensity
Cc1nc(NC(=O)N2CCCC2C(N)=O)sc1-c1csc(C(C)(C)C)n1 (stereo not shown)	60.7 % of DMSO
CN1c2ccc([N+](=O)[O-])cc2N=C(c2ccc(C(=O)O)cc2)c2cc3c(cc21)C(C)(C)CCC3(C)C	116 % of DMSO
O=C(NCCNCC(O)COc1ccc(O)cc1)N1CCOCC1 (stereo not shown)	95.3 % of DMSO and 111 % of DMSO
COc1cc2c(cc1OC)-c1c/c(=N\c3c(C)cc(C)cc3C)n(C)c(=O)n1CC2	128 % of DMSO
Cc1ccc(Nc2nccc(N(C)c3ccc4c(C)n(C)nc4c3)n2)cc1S(N)(=O)=O	131 % of DMSO

Series 3
Target: DNA polymerase theta, ATPase domain (POLQ, Homo sapiens, UniProt O75417)
Chain of UniProt O75417 (whole entry, unmodified, looked up): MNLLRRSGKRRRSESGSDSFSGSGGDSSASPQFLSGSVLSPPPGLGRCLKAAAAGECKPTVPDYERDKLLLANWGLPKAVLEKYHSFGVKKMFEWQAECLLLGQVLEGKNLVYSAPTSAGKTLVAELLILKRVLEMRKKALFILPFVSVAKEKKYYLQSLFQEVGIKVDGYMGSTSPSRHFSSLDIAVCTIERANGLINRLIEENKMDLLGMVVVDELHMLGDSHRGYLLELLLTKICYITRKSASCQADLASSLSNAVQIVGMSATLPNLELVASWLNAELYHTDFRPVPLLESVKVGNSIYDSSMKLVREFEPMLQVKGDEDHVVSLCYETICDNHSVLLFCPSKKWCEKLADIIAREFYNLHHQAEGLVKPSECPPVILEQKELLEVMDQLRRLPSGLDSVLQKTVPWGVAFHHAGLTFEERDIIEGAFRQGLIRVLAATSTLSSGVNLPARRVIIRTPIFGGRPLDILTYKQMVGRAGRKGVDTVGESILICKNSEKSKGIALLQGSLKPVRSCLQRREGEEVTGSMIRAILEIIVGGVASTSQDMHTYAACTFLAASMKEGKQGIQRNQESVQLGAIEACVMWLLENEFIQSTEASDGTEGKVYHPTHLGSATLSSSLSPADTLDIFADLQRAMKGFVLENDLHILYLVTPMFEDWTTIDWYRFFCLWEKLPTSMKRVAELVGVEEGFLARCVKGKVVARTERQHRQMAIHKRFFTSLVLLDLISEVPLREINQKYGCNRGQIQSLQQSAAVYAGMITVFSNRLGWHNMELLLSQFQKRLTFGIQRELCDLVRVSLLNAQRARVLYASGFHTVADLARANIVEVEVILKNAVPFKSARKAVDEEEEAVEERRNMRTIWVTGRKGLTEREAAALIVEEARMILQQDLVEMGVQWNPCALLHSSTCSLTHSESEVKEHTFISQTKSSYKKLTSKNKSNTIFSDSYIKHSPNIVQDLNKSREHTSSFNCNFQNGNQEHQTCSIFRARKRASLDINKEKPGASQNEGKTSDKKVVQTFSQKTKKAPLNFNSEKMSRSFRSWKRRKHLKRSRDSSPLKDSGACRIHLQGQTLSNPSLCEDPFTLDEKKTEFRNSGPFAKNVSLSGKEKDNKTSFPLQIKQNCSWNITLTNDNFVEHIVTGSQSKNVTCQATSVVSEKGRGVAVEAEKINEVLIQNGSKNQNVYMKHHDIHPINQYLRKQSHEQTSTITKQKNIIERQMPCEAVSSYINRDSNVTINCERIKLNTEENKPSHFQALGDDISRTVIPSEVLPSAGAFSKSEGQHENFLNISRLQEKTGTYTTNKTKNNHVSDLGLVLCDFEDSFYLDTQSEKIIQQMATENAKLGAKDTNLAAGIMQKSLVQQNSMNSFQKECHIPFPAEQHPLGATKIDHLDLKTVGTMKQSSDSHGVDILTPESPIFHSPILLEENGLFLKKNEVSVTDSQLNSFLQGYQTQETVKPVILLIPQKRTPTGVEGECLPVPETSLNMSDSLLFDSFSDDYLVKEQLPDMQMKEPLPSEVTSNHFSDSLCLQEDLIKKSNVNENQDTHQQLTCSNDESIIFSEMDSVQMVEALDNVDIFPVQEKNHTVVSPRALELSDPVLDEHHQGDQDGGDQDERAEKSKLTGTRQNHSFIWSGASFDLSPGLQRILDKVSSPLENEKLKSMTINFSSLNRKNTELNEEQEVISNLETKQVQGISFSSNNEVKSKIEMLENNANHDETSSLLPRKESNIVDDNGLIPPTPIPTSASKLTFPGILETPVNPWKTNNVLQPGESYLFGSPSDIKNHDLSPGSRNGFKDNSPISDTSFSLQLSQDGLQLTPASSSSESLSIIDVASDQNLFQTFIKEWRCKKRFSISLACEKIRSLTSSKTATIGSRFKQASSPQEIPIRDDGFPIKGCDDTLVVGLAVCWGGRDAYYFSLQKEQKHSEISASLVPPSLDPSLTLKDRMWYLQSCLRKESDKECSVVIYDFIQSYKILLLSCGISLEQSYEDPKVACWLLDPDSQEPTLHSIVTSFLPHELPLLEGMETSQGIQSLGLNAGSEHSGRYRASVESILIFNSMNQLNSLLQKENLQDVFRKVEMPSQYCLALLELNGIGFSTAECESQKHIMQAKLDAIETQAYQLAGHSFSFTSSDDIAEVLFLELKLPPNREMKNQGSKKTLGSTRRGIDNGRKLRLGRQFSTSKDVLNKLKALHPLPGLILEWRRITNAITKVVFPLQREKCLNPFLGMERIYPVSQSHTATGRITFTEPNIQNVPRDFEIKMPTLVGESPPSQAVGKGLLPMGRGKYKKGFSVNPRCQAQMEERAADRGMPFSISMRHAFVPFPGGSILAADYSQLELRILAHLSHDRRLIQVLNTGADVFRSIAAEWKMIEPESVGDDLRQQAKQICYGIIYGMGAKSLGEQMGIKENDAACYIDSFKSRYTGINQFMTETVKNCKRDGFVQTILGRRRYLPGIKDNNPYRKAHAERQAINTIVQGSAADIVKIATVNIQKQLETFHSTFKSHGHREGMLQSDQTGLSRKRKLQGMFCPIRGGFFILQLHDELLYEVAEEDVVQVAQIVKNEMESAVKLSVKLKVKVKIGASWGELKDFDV
Effect on: enzyme activity
Action: inhibitor
Concentration: 77 µM
Baseline: untreated
Structure (SMILES)	remaining activity
O=C(Nc1ccc2[nH]ncc2c1)C1CCC1	99.2%
Cc1ccc(S(=O)(=O)NC(=O)NN2CC3CCC[C@@H]3C2)cc1 (stereo in doubt)	93.3% and 98.1%
O=C1c2ccc(Nc3ccc(F)cc3F)cc2CCc2ccc(OC[C@H](O)CO)cc21	103%

Series 4
SMILES: CCCCN(CCCC)C(=O)CN1C[C@H](c2cc(OC)c3c(c2)OCO3)[C@@H](C(=O)O)[C@@H]1CC(C)(C)CCC
Effect on: binding
Method: radioligand binding
Concentration: 10 µM
target	inhibition [%]
Histamine H1 receptor (HRH1, Homo sapiens, UniProt P35367)	53.6
5-hydroxytryptamine receptor 3A (HTR3A, Homo sapiens, UniProt P46098)	14.7
Alpha-2B adrenergic receptor (ADRA2B, Homo sapiens, UniProt P18089)	9.73
Alpha-2C adrenergic receptor (ADRA2C, Homo sapiens, UniProt P18825)	-18.4
5-hydroxytryptamine receptor 7 (HTR7, Homo sapiens, UniProt P34969)	-2.24
Alpha-1B adrenergic receptor (ADRA1B, Homo sapiens, UniProt P35368)	-7.9
Beta-3 adrenergic receptor (ADRB3, Homo sapiens, UniProt P13945)	2.71
5-hydroxytryptamine receptor 5A (HTR5A, Homo sapiens, UniProt P47898)	-5.07
Muscarinic acetylcholine receptor M2 (CHRM2, Homo sapiens, UniProt P08172)	-1.89
Histamine H4 receptor (HRH4, Homo sapiens, UniProt Q9H3N8)	-0.606
D(1A) dopamine receptor (DRD1, Homo sapiens, UniProt P21728)	4.66
Alpha-1D adrenergic receptor (ADRA1D, Homo sapiens, UniProt P25100)	-11.7
Muscarinic acetylcholine receptor M4 (CHRM4, Homo sapiens, UniProt P08173)	8.5
Histamine H2 receptor (HRH2, Homo sapiens, UniProt P25021)	24.3

Other studies, line by line
Structure (SMILES)	cell line	effect on	refers to	concentration	baseline	quantity	value
O=C(COc1ccc(Cl)cc1)NC1CCC(NC(=O)COc2ccc(Cl)cc2)CC1 (stereo not shown)	HEK293T ATF4-firefly luciferase reporter	integrated stress response	ATF4	concentration not given	DMSO	reporter signal	84.3% and 68.3% and 60.8% and 71.2% and 72.7% and 72.6% and 65.6% and 76.4%

Excerpt of the above (series 1):
concentration	time	luminescence remaining
2.222 µM	72 h	10.4% and 11%
0.00305 µM	4 h	93.8% and 104%
